Assay results collected from several papers.
Lines come from different studies, so protocols differ. ± gives the spread as reported. ≈ marks a conversion by molar mass, not a printed value.

The EC50 of `Cc1cc(/C=C/C#N)cc(C)c1-n1cnc2cnc(Nc3ccc(C#N)cc3)nc21` is reported as 2.1 ± 0.9 nM (HIV-1; viral replication, single-round infection; RT mutant K103N/P225H).
With `CC(=O)N[C@@H](CCCNC(=O)c1ccc(-c2cc(C(F)(F)F)ccn2)cc1)C(=O)NCC(=O)N[C@@H](CCCNC(=O)c1ccc(-c2cc(C(F)(F)F)ccn2)cc1)C(N)=O` the IC50 was 4000 nM (vaccinia virus VH1 phosphatase; enzyme activity, inhibitor).
The fold resistance of `Cc1cn(C2CCC(OC(C(=O)O)P(=O)(O)O)C2)c(=O)[nH]c1=O` (racemic) is reported as 1.5 fold (HIV-1 reverse transcriptase K65R; enzyme activity, inhibitor; added: poly(rA)·oligo(dT), [3H]dTTP; baseline: mutant over wild type).
`CC[C@H](C)[C@@H]1NC(=O)[C@H](CC(=O)O)NC(=O)[C@H]([C@@H](C)O)NC(=O)[C@@H]2CSSC[C@@H]3NC(=O)[C@H](CC(C)C)NC(=O)[C@H](CC(N)=O)NC(=O)[C@H](CC(C)C)NC(=O)[C@H](CCCNC(=N)N)NC(=O)[C@H](C)NC(=O)[C@H](CCCCN)NC(=O)[C@H](CCSC)NC(=O)[C@H](CO)NC(=O)[C@H]([C@@H](C)O)NC(=O)[C@H](CCCNC(=N)N)NC(=O)[C@H](CSSC[C@H](NC(=O)[C@H]([C@@H](C)O)NC(=O)[C@H](CCCCN)NC(=O)[C@H](CCCNC(=N)N)NC3=O)C(=O)NCC(=O)N[C@@H](CO)C(=O)N[C@H](C(=O)O)CSSC[C@H](NC(=O)[C@@H](NC(=O)[C@@H](N)CCCNC(=N)N)[C@@H](C)O)C(=O)N[C@@H](CCCCN)C(=O)N[C@@H](CC(=O)O)C(=O)N[C@@H](CC(C)C)C(=O)N[C@@H]([C@@H](C)CC)C(=O)N3CCC[C@H]3C(=O)N[C@@H](C(C)C)C(=O)N[C@@H](CO)C(=O)N[C@@H](CCC(=O)O)C(=O)N2)NC(=O)[C@H](CCCNC(=N)N)NC1=O` gave a koff of 0.15 ± 0.01 s⁻¹ (KcsA-Shaker channel; two-electrode voltage clamp; Xenopus oocytes; 0 mV).
With `CC[C@H](C)[C@H](NC(=O)[C@H](CCCCN)NC(=O)[C@H](CCCCN)NC(=O)[C@H](CC(C)C)NC(=O)[C@H](Cc1c[nH]c2ccccc12)NC(=O)CN)C(=O)NCC(=O)N[C@@H](CCCCN)C(=O)N[C@@H](CCCCN)C(=O)N[C@H](C(=O)N[C@@H](CCC(=O)O)C(=O)N[C@@H](CCCNC(=N)N)C(=O)N[C@H](C(=O)NCC(=O)N[C@@H](CCC(N)=O)C(=O)N[C@@H](Cc1c[nH]cn1)C(=O)N[C@H](C(=O)N[C@@H](CCCNC(=N)N)C(=O)N[C@@H](CC(=O)O)C(=O)N[C@@H](C)C(=O)N[C@H](C(=O)N[C@H](C(=O)N[C@@H](CCC(N)=O)C(=O)N[C@H](C(=O)N[C@H](C(=O)NCC(=O)N[C@H](C(=O)N[C@@H](C)C(=O)N[C@@H](CCC(N)=O)C(=O)N[C@@H](CCC(N)=O)C(=O)N[C@@H](C)C(=O)N[C@@H](C)C(=O)N[C@@H](CC(N)=O)C(=O)N[C@H](C(=O)N[C@@H](C)C(=O)N[C@@H](C)C(=O)N[C@H](C(=O)N[C@@H](CC(C)C)C(=O)N[C@@H](CCCCN)C(N)=O)[C@@H](C)O)C(C)C)C(C)C)[C@@H](C)CC)[C@@H](C)O)[C@@H](C)CC)[C@@H](C)O)[C@@H](C)O)C(C)C)[C@@H](C)CC` the MIC was 256 µg/mL (≈ 61 µM) (Pseudomonas aeruginosa; broth microdilution; RKI 93/12, CAMHB with 10% mouse serum).
`CC[C@H](C)[C@H](NC(=O)[C@H](CC(C)C)NC(=O)[C@@H](NC(=O)[C@@H](NC(=O)[C@H](CC(C)C)NC(=O)[C@H](CCCCN)NC(=O)[C@@H](N)CCCCN)[C@@H](C)CC)[C@@H](C)O)C(=O)N[C@@H](Cc1ccccc1)C(=O)N[C@@H](CCCCN)C(=O)N[C@@H](CCCCN)C(=O)N[C@H](C(=O)N[C@@H](CCCNC(=N)N)C(=O)N[C@@H](CCC(=O)O)C(=O)N[C@@H](CCCCN)C(=O)N[C@@H](CCCCN)C(=O)N[C@@H](CCCCN)C(=O)N[C@@H](CCC(=O)O)C(=O)N[C@@H](CS)C(=O)N[C@@H](CC(C)C)C(=O)N[C@H](C(=O)O)C(C)C)[C@@H](C)O`: “inactivation equilibrium constant” 0.068 (TTX-sensitive sodium channel (mouse); resurgent sodium current, open-channel blocker, kinetic model fit; mouse hippocampal CA3 neurons; 200 µM assumed intracellular, membrane potential -30 mV, unit not given; baseline: kIO over kOI).
`CCCCCCCCCCCCCCCCCC(=O)N[C@@H](CCC(=O)NCCCC[C@H](NC(=O)[C@H](CCC(N)=O)NC(=O)[C@H](CCCCN)NC(=O)[C@H](CO)NC(=O)[C@H](CC(C)C)NC(=O)[C@H](CC(=O)O)NC(=O)[C@H](CO)NC(=O)[C@@H](NC(=O)[C@H](Cc1ccccc1)NC(=O)[C@@H](NC(=O)CNC(=O)[C@H](CCC(N)=O)NC(=O)[C@@H](CO)NC(=O)[C@@H](N)Cc1c[nH]cn1)[C@@H](C)O)[C@@H](C)O)C(=O)N[C@@H](CC(=O)O)C(=O)N[C@@H](CCC(=O)O)C(=O)N[C@@H](CCC(N)=O)C(=O)N[C@@H](CC(C)C)C(=O)N[C@@H](C)C(=O)N[C@@H](CCCCN)C(=O)N[C@@H](CC(=O)O)C(=O)N[C@@H](Cc1ccccc1)C(=O)N[C@H](C(=O)N[C@@H](CCC(=O)O)C(=O)N[C@@H](Cc1c[nH]c2ccccc12)C(=O)N[C@@H](CC(C)C)C(=O)N[C@@H](CCCCN)C(=O)N[C@@H](C)C(=O)NCC(=O)NCC(=O)N1CCC[C@H]1C(=O)N[C@@H](CO)C(=O)N[C@@H](CO)C(=O)NCC(=O)N[C@@H](C)C(=O)N1CCC[C@H]1C(=O)N1CCC[C@H]1C(=O)N1CCC[C@H]1C(=O)N[C@@H](CO)C(N)=O)[C@@H](C)CC)C(=O)O` gave an EC50 of 0.119 nM (glucagon receptor (monkey); cAMP production, agonist, HTRF; HEK293 expressing monkey GCGR).
`CC[C@H](C)[C@@H]1NC(=O)[C@H](CC(=O)O)NC(=O)[C@H]([C@@H](C)O)NC(=O)[C@@H]2CSSC[C@@H]3NC(=O)[C@H](CC(C)C)NC(=O)[C@H](CC(N)=O)NC(=O)[C@H](CC(C)C)NC(=O)[C@H](CCCNC(=N)N)NC(=O)[C@H](Cc4ccc(O)cc4)NC(=O)[C@H](CCCCN)NC(=O)[C@H](CCSC)NC(=O)[C@H](CO)NC(=O)[C@H]([C@@H](C)O)NC(=O)[C@H](CCCNC(=N)N)NC(=O)[C@H](CSSC[C@H](NC(=O)[C@H]([C@@H](C)O)NC(=O)[C@H](CCCCN)NC(=O)[C@H](CCCNC(=N)N)NC3=O)C(=O)NCC(=O)N[C@@H](CO)C(=O)N[C@H](C(=O)O)CSSC[C@H](NC(=O)[C@@H](NC(=O)[C@@H](N)CCCNC(=N)N)[C@@H](C)O)C(=O)N[C@@H](CCCCN)C(=O)N[C@@H](CC(=O)O)C(=O)N[C@@H](CC(C)C)C(=O)N[C@@H]([C@@H](C)CC)C(=O)N3CCC[C@H]3C(=O)N[C@@H](C(C)C)C(=O)N[C@@H](CO)C(=O)N[C@@H](CCC(=O)O)C(=O)N2)NC(=O)[C@H](CCCNC(=N)N)NC1=O`: “dissociation time constant” 714 ± 82 s (KcsA-Shaker chimera channel; two-electrode voltage clamp; Xenopus oocytes; 5 nM, 0 mV).
The EC50 of `Cc1cc(/C=C/C#N)cc(C)c1Nc1nc(Nc2ccc(C#N)cc2)ncc1N` is reported as 0.3 ± 0.1 nM (HIV-1; viral replication, single-round infection; RT mutant V106A/L234I).
Under “inactivation equilibrium constant”, `CC[C@H](C)[C@H](NC(=O)[C@H](CC(C)C)NC(=O)[C@H](CCCCN)NC(=O)[C@@H](N)CCCCN)C(=O)N[C@H](C(=O)N[C@@H](Cc1ccccc1)C(=O)N[C@H](C(=O)N1CCC[C@H]1C(=O)N[C@@H](CCCCN)C(=O)N[C@@H](CCCCN)C(=O)N[C@H](C(=O)N[C@@H](CCCNC(=N)N)C(=O)N[C@@H](CCC(=O)O)C(=O)N[C@@H](CCCCN)C(=O)N[C@@H](CCCCN)C(=O)N[C@@H](CCCCN)C(=O)N[C@@H](CCC(=O)O)C(=O)N[C@@H](CS)C(=O)N[C@@H](CC(C)C)C(=O)N[C@H](C(=O)O)C(C)C)[C@@H](C)O)[C@@H](C)CC)[C@@H](C)O` is recorded as 0.19 (TTX-sensitive sodium channel (mouse); resurgent sodium current, open-channel blocker, kinetic model fit; mouse hippocampal CA3 neurons; 200 µM assumed intracellular, membrane potential -10 mV, unit not given; baseline: kIO over kOI).
`CCCCCCCCCCCCCCCC(=O)N[C@@H](CCC(=O)NCCOCCOCCC(=O)NCCOCCOCCC(=O)NCCCC[C@H](NC(=O)[C@H](CC(=O)O)NC(=O)[C@H](CC(C)C)NC(=O)[C@H](Cc1ccc(O)cc1)NC(=O)[C@H](CCCCN)NC(=O)[C@H](CO)NC(=O)[C@H](Cc1ccc(O)cc1)NC(=O)[C@H](CC(=O)O)NC(=O)[C@H](CO)NC(=O)[C@@H](NC(=O)[C@H](Cc1ccccc1)NC(=O)[C@@H](NC(=O)CNC(=O)[C@H](CCC(N)=O)NC(=O)[C@@H](CO)NC(=O)[C@@H](N)Cc1c[nH]cn1)[C@@H](C)O)[C@@H](C)O)C(=O)N[C@@H](CCCNC(=N)N)C(=O)N[C@@H](CCCNC(=N)N)C(=O)N[C@@H](C)C(=O)N[C@@H](CCC(N)=O)C(=O)N[C@@H](CC(=O)O)C(=O)N[C@@H](Cc1ccccc1)C(=O)N[C@H](C(=O)N[C@@H](CCC(N)=O)C(=O)N[C@@H](Cc1c[nH]c2ccccc12)C(=O)N[C@@H](CC(C)C)C(=O)N[C@@H](CC(C)C)C(=O)N[C@@H](CC(N)=O)C(=O)N[C@H](C(=O)NCC(=O)NCC(=O)N1CCC[C@H]1C(=O)N[C@@H](CO)C(=O)N[C@@H](CO)C(=O)NCC(=O)N[C@@H](C)C(=O)N1CCC[C@H]1C(=O)N1CCC[C@H]1C(=O)N1CCC[C@H]1C(=O)N[C@@H](CO)C(N)=O)[C@@H](C)O)C(C)C)C(=O)O` has a urea of 6.44 ± 0.81 mmol/L (rhesus monkey, female; subcutaneous, 20 µg/kg once daily, 28 days).
For `Nc1ccn(C2CCC(OC(C(=O)O)P(=O)(O)O)C2)c(=O)n1` (racemic), the fold resistance was 0.2 fold (HIV-1 reverse transcriptase K70E; enzyme activity, inhibitor; added: poly(rI)·oligo(dC), [3H]dCTP; baseline: mutant over wild type).

Repeated from above:
With `CC[C@H](C)[C@H](NC(=O)[C@H](CCCCN)NC(=O)[C@H](CCCCN)NC(=O)[C@H](CC(C)C)NC(=O)[C@H](Cc1c[nH]c2ccccc12)NC(=O)CN)C(=O)NCC(=O)N[C@@H](CCCCN)C(=O)N[C@@H](CCCCN)C(=O)N[C@H](C(=O)N[C@@H](CCC(=O)O)C(=O)N[C@@H](CCCNC(=N)N)C(=O)N[C@H](C(=O)NCC(=O)N[C@@H](CCC(N)=O)C(=O)N[C@@H](Cc1c[nH]cn1)C(=O)N[C@H](C(=O)N[C@@H](CCCNC(=N)N)C(=O)N[C@@H](CC(=O)O)C(=O)N[C@@H](C)C(=O)N[C@H](C(=O)N[C@H](C(=O)N[C@@H](CCC(N)=O)C(=O)N[C@H](C(=O)N[C@H](C(=O)NCC(=O)N[C@H](C(=O)N[C@@H](C)C(=O)N[C@@H](CCC(N)=O)C(=O)N[C@@H](CCC(N)=O)C(=O)N[C@@H](C)C(=O)N[C@@H](C)C(=O)N[C@@H](CC(N)=O)C(=O)N[C@H](C(=O)N[C@@H](C)C(=O)N[C@@H](C)C(=O)N[C@H](C(=O)N[C@@H](CC(C)C)C(=O)N[C@@H](CCCCN)C(N)=O)[C@@H](C)O)C(C)C)C(C)C)[C@@H](C)CC)[C@@H](C)O)[C@@H](C)CC)[C@@H](C)O)[C@@H](C)O)C(C)C)[C@@H](C)CC` the MIC was 256 µg/mL (≈ 61 µM) (Pseudomonas aeruginosa; broth microdilution; RKI 93/12, CAMHB with 10% mouse serum).
